# Experimental data collected from several papers.
# A part holds a random share of what one study measured.

# Series 1 — method: RNA Bind-n-Seq; form: RNA; matrix: in vitro; concentration: 365 nM; baseline: no-protein control; reading: higher = stronger binding
# Target: RNA binding protein fox-1 homolog 2, RRM domain, GST-SBP tag (RBFOX2, Homo sapiens, UniProt O43251-10, residues 100-194)
# Setting: natural RNA segment, single round, ends assumed
# Shared flanks, not repeated: GGGAGUUCUACAGUCCGACGAUC … UGGAAUUCUCGGGUGCCAA
# Target sequence (chain): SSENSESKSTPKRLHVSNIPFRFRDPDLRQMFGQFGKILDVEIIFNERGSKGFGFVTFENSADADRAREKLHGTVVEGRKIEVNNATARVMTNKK
Oligonucleotide,RBNS enrichment (R)
UAUCCCUACAAUGUACUGACAGUUCUUACAGUUGAGAUUUGUUCUUUUCAGCUAUUGCUUGUGAAAAAAAGCAAGACUAUGUCACUCUAUAGAAGGCUGUUAAAGUGACU,0.411
CGGAGGGCACAGUAGGAGCUGCUGGGAAGCGCCUUCCGUUCUGAUCCCUCACAUCCUGUCACGGCAGGGGCUGUGCAGGGUACUGCCCUCCCUCUGCCCAGCAGCCCCAU,0.217
GCUAUAGCUCUCAAGUGCUCUAGAGGCAGUUGGAAAGGAAGGAAUGCAUGCUUAUGUGAGCAGCUGGACUCCCGCUCAGUACAGGCCUGGAACCCCAGGCCAAAUGUAUG,0.639
AGGCCAUCGACGACCUCAUGCCUGCCCAGAAAUGAAGCCCGGCCCACACCCGACACCAGCCCUGCUGCUUCCUAACUUAUUGCCUGGGCAGUGCCCACCAUGCACCCCUG,0.797
GGUUUAUGAUCUUAAGUUGGUAACAUAGGAAUAUGUAUUUGUCAAUUUUAGUUCACAAACAUAUCCAUAAGAAUGUUUACACAUGGCAGUAUCAAAGCAUAUAAAAUAUU,0.376
AGAAAGCACAGUGGACGGGUUGUGUUUGUCCCAGCCCUCUCUGUAGGCUGAGCAGUGCAGCGGCGCCCACAGGUUUACACACAAGUUUGGUUUGGUUUCUUCUGUUCUGC,0.313
UGAAGGGCCGGGCGUGCCUCUCUUGGUGUUGCAUGCUCGUGACACUCAAGAAAUUUUGAACUGAUGAGGGAGGAAGACUGGGGAAAGAAAGAAAGCACACACAGGUACUG,3.75
CACCCACCCCAGCCCUUCCGCUCUGCCUAGCUCUCCCCACCCCCUUCCAUAACCCAAUUCAGGUUUUUAACUCAAUGUAGAUUCUCCAAGCACUUUACAGAUGAGGGUUG,0.77
UUUUGGUUUUUUAAAAUCUGUACAGUAAAAGCAACUUUUUCUGUCAAAUAAAAAUGAGAAAUGCAGUAAUUGGUCUGUAGUCUUUACUUGGGGUUAAGAGUUCUGUGAAC,0.35
CCAGCAAGGGUGACUCACUAGACUCAGGAUGUAGCCUGAGCAGUGUCACCCAGAGUAGCGGCUGCCCUGGUAGCCGAGAGCAGGCAAGGCUCUAAGAGCACUGUGCUUGG,0.266
UAUCAAGUUCACAACCAGUUUUAUAUUCGAAACGCUUGGAGUCAGCCAGCCAGCCACAUGCAGCUUUGCUGAUAAAUGGAUACCUUUUCACACCAUUUAUGAAAACAAAA,0.503

# Series 2 — method: universal PBM; form: double-stranded DNA, one strand shown; matrix: in vitro; concentration: 600 nM; reading: higher = stronger binding
# Target: Sal-like protein 4, full length isoform A (SALL4, Homo sapiens, UniProt Q9UJQ4, residues 1-1053)
# Sequence of UniProt Q9UJQ4 (whole entry, looked up): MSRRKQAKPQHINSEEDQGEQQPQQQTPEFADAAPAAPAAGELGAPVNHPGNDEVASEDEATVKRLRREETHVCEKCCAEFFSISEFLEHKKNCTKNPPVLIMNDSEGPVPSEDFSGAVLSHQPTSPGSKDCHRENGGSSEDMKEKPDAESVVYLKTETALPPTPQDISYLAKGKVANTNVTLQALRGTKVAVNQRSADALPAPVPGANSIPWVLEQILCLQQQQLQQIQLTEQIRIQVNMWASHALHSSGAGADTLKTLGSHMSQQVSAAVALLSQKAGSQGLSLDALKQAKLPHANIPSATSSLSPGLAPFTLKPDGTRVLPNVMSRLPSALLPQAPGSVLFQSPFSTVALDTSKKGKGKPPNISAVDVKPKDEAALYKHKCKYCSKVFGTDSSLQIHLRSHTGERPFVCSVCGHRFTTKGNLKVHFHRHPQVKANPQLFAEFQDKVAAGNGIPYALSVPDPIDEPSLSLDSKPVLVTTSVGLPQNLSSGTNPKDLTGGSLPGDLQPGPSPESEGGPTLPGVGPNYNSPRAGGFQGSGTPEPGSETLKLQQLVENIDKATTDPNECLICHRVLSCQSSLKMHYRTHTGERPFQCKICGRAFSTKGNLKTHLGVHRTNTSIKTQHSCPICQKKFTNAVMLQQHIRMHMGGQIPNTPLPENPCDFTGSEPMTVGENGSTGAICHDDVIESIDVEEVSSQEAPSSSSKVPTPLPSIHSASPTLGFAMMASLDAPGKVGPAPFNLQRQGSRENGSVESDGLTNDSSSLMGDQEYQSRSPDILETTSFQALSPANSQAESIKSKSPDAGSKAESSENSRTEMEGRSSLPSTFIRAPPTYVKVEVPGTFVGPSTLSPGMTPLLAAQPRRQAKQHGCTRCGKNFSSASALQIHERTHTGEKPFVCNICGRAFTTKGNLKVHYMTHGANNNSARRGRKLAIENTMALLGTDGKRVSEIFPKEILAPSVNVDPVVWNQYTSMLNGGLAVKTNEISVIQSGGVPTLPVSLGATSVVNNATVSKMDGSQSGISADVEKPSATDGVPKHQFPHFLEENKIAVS
# Setting: 8-mer, flanks averaged, mean of replicates
Oligonucleotide,E-score
CCGTTAGC,-0.155
CTTAAGAA,0.288
ACTTGTCA,0.00809
ACAATCTG,0.0378
TCCCCTAA,0.00359
ACAAAGGG,-0.0703
TACGAGCA,0.0088

# Series 3 — method: protein-binding microarray; form: double-stranded DNA, one strand shown; matrix: in vitro; concentration: 250 nM; setting: 60-bp whole probe; with: salmon DNA 0.4 mg/ml; baseline: random background probes; reading: higher = stronger binding; shared flanks, not repeated: GCCTAGCAC … GTCTTGATTCGCTTGACGCTGCTG
# Target: Interferon regulatory factor 5, full length, phosphomimetic (IRF5, Homo sapiens, UniProt Q13568-2, residues 1-514, K96S/S451D/S453D/S456D/S462D)
Oligonucleotide,log fluorescence
AAGACCATCCTATGTAGATGTGTGCTA,-0.205 z-score
TCAAATCTCTTTCCTTAACTGTGCTAG,1.09 z-score
GACGATCTCAGTCTCGAGACGTGCTAG,0.12 z-score
TTAGGACAGGACTTTCGGTTAGTGCTA,9.42 z-score
GCCGATATCGGGACTGGAGACGTGCTA,1.47 z-score
GACGATCTCGGGACTGGAGACGTGCTA,-0.374 z-score
TTAGGTTTCCTTATCCTCTAGTGCTAG,0.874 z-score
GACGGACTGGGTTTCGGGATGTGCTAG,2.79 z-score
TTAGGACTGGGGATTCGGTTAGTGCTA,-0.234 z-score
TCAAGTTTTACTTTCTAACTGTGCTAG,1.96 z-score

# Single results of other studies
Substance,target,assay,system,conditions,scale,endpoint,result
"PhoQ, residues 284 288 289 292 302 303 SSLVEF","PhoP, residues 12 14 15 18 19 MHTVL (Escherichia coli, UniProt P23836)","Sort-seq, refers to: YFP reporter",E. coli,"PhoQ-PhoP variant library, with: 10 µM Mg2+","baseline: high Mg2+ state, higher = stronger signaling",fold induction,8.18

# A few entries again (series 2):
Oligonucleotide,E-score
ACAAAGGG,-0.0703
CCGTTAGC,-0.155
TACGAGCA,0.0088
